{"data": "Published values pooled from the literature", "note": "Every numbered part comes from another study and shows a few of its results, in no order.", "UniProt Q9Y243, sequence (whole entry, looked up)": "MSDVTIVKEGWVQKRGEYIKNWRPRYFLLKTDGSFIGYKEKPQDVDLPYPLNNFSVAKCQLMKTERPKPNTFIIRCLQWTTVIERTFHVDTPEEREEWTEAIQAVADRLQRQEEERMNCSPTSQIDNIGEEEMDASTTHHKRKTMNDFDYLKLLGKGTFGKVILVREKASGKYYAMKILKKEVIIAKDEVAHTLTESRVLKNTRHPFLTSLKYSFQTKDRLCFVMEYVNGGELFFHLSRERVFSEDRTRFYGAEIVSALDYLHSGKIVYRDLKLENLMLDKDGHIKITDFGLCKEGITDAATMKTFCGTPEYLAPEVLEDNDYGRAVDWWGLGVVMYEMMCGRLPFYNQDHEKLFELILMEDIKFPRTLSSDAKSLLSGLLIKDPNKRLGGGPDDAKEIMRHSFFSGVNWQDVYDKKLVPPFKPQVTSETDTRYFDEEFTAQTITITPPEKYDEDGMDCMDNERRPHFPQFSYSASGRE"}
{"data": "Study 1", "target": "Histone acetyltransferase KAT6A, winged helix 2, GST fusion (KAT6A, Homo sapiens, UniProt Q92794, residues 85-181)", "technique": "protein binding microarray", "molecule type": "double-stranded DNA, one strand shown", "matrix": "in vitro", "tested at": "not given", "notes": "8-mer, flanks averaged, mean of 2 arrays, mostly near background", "reference": "not given", "direction": "higher = stronger binding", "Residues (chain)": "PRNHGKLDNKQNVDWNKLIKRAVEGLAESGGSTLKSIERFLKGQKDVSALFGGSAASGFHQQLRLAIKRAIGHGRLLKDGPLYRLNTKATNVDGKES"}
{"Strand": "CGTCACAA", "E-score": 0.103}
{"Strand": "CACCACCG", "E-score": -0.0915}
{"Strand": "ACTGGACG", "E-score": -0.111}
{"Strand": "CGTAAAAC", "E-score": -0.0796}
{"Strand": "CTTCGGTC", "E-score": 0.141}
{"Strand": "ACCAGTGA", "E-score": -0.0676}
{"Strand": "TTAGTCAA", "E-score": -0.0391}
{"Strand": "ACCGAACA", "E-score": 0.00498}
{"data": "Study 2", "target": "RNA binding protein fox-1 homolog 2, RRM domain, GST-SBP tag (RBFOX2, Homo sapiens, UniProt O43251-10, residues 100-194)", "technique": "RNA Bind-n-Seq", "molecule type": "RNA", "matrix": "in vitro", "tested at": "365 nM", "notes": "natural RNA segment, single round, ends assumed", "reference": "no-protein control", "direction": "higher = stronger binding", "constant ends, left off below": "GGGAGUUCUACAGUCCGACGAUC … UGGAAUUCUCGGGUGCCAA", "Residues (chain)": "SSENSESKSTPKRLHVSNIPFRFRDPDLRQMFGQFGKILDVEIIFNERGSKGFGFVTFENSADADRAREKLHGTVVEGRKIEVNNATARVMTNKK"}
{"Strand": "CUUAGAAACAAAAAGAGCUUUCCUUCUCCAGGAAUACUGAACAUGGGAGCUCUUGAAAUAUGUAGUAUUAAAAGUUGCAUUUGAAAUUCUUGACUUUCUUAUGGGCACUU", "RBNS enrichment (R)": 0.395}
{"Strand": "AAUUAGCAAGGGCUAACAGUACAUCUGAUGAACUAUGGUAACUGAAGAACAUUUUUAAUUCUUUAGGAAUCUGCAAUGAGUGAUUACAUGCUUGUAAUAGGUAGGCAAUU", "RBNS enrichment (R)": 0.37}
{"Strand": "UAUUGAAAUGGUUUCCUAGUGGUAGUAGGAAGACUGAAUAAGAACAACCUAUUUUCUGGUUGUUGUCAGCUUGCCCCUGUCUAUACAGCUUGUUACGUGAAUUCAACAAG", "RBNS enrichment (R)": 0.456}
{"Strand": "UUUUAAGGAGAAAAAGAAACUUAUUUAAGAUUCUGAAGGUGCUACUAUUUUCUGUUGCCACAGGCUUUAAAGAAACUUUCUGAAUGGGGCCUGGCCCACUUCUCUUUCUC", "RBNS enrichment (R)": 0.5}
{"Strand": "CCUUUCACUGUAUGACUUGAAUCAGUUUUGAUUCUAUUUGUAAGUGUUUCUUGUCGUGAGGCACCUGCCAUGUCUGUUGCGUUUUCCUCGGCAGCGUGUAGGGCUUCAGC", "RBNS enrichment (R)": 0.231}
{"Strand": "AGCGAUUCUCUUGCCUCAGCCUCCAGAGUAGCUGGGAUUACAGGCGCCCGCCAUCGUGCCCAGCUAAUUUUUAUAUUUUUAGUGGAGACAGGGUUUCGGGUUUCACCAUG", "RBNS enrichment (R)": 0.294}
{"Strand": "CCUAACCAGAUCUGAGCUGUGCUCACAAUAAUAAUAAUGAAAUCAGAUUCUUUGAUGCUGGACUCAGGAGGGAAAUCAUUAGCCAACUGUUGACUUACUUAUAGCUAGAU", "RBNS enrichment (R)": 0.699}
{"Strand": "ACUGAAUAUUUUCUAUAAUAUGGCCUUACCUGCACCCUGCGGUGUGGAUUUGGGCUGCCUUGGAAGUGCCUUUAUCUGCCUCUUCUGUGACAUUUUGAGGUCUGCUUAGC", "RBNS enrichment (R)": 0.292}
{"data": "Study 3", "target": "Myc proto-oncogene protein, bHLH-zipper, MAX partner unstated (MYC, Homo sapiens, UniProt P01106, residues 368-449)", "technique": "protein-binding microarray", "molecule type": "double-stranded DNA, one strand shown", "matrix": "in vitro", "tested at": "not given", "notes": "k-mer, scored over probes, only values ≥0.25", "direction": "higher = stronger binding", "UniProt P01106, sequence (368-449, looked up)": "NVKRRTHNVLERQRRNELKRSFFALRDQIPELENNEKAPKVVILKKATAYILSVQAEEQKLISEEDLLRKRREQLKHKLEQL"}
{"Strand": "CACGATGG", "E-score": 0.356}
{"Strand": "ACGTGTAA", "E-score": 0.344}
{"Strand": "ATGTGGGA", "E-score": 0.301}
{"Strand": "CCATGGAC", "E-score": 0.25}
{"Strand": "CATGCGGG", "E-score": 0.451}
{"Strand": "CGTGTTAC", "E-score": 0.385}
{"Strand": "CACCCCTC", "E-score": 0.273}
{"Strand": "ATGTGGTA", "E-score": 0.324}
{"data": "Mixed results"}
{"SMILES": "Cn1nc2c3c(cccc31)C(=O)c1ccccc1-2", "target": "RAC-gamma serine/threonine-protein kinase (AKT3, Homo sapiens, UniProt Q9Y243)", "assay": "enzyme activity, inhibitor", "setting": "0.5 µM", "how to read": "reference: control", "measurement": "remaining activity", "result": "102%"}
